Results of several laboratories.
Protocols differ between the studies behind these lines. Numbers after ± are the reported error.

| Structure (SMILES) | technique | matrix | time | pH | notes | logD |
| --- | --- | --- | --- | --- | --- | --- |
| O=C(CN1C(=O)C2(CCN(C(=O)c3ccc4[nH]ncc4c3)CC2)c2c(Br)cccc21)NCC(F)(F)F |  |  |  | pH 7.4 |  | 3.27 |
| COc1ccccc1C(NS(=O)(=O)c1cc2ccc(O)nc2cc1Cl)C(=O)N(CC(=O)NCCn1cc(COCCOCCOCCOCCNc2cccc3c2C(=O)N(C2CCC(=O)NC2=O)C3=O)nn1)Cc1cccs1 (mixture of isomers) | fast-gradient HPLC |  |  | pH 7.4 |  | 2.5 |
| Oc1ccc2c3c1O[C@H]1[C@@H](O)CC[C@H]4[C@@H](C2)N(CC2CCC2)CC[C@@]341 |  | octanol/phosphate buffer | 1 h | pH 7.45 | ionic strength 0.15 M | 0.75 |
| CN[C@@H](C)C(=O)N[C@H](C(=O)N1C[C@@H](NC(=O)COCCOCCOCCOCc2cn(CCNC(=O)CN(Cc3cccs3)C(=O)[C@H](NS(=O)(=O)c3cc4ccc(O)nc4cc3Cl)c3ccccc3OC)nn2)C[C@H]1C(=O)N[C@@H]1CCCc2ccccc21)C1CCCCC1 | fast-gradient HPLC |  |  | pH 7.4 |  | 2.5 |
| O=C1CC[C@@]2(O)[C@H]3Cc4ccc(O)c5c4[C@@]2(CCN3CCc2ccccc2)[C@H]1O5 |  | octanol/phosphate buffer | 1 h | pH 6.89 | ionic strength 0.15 M | 1.47 |
| CN[C@@H](C)C(=O)N[C@H](C(=O)N1C[C@@H](NC(=O)COCCOCc2cn(CCNC(=O)CN(Cc3cccs3)C(=O)[C@H](NS(=O)(=O)c3cc4ccc(O)nc4cc3Cl)c3ccccc3OC)nn2)C[C@H]1C(=O)N[C@@H]1CCCc2ccccc21)C1CCCCC1 | fast-gradient HPLC |  |  | pH 7.4 |  | 2.4 |
| COc1ccc2c3c1O[C@H]1[C@@H](O)C=C[C@H]4[C@@H](C2)N(CC2CCC2)CC[C@@]341 |  | octanol/phosphate buffer | 1 h | pH 7.45 | ionic strength 0.15 M | 1.45 |
| COc1ccccc1[C@@H](NS(=O)(=O)c1cc2ccc(O)nc2cc1Cl)C(=O)N(CC(=O)NCCn1cc(COCCOCCOCC(=O)N[C@H](C(=O)N2C[C@H](O)C[C@H]2C(=O)NCc2ccc(-c3scnc3C)cc2)C(C)(C)C)nn1)Cc1cccs1 | fast-gradient HPLC |  |  | pH 7.4 |  | 2.3 |
| O=C(CN1C(=O)C2(CCN(C(=O)c3cnc4[nH]ncc4c3)CC2)c2c(F)cccc21)NCC(F)(F)F |  |  |  | pH 7.4 |  | 1.97 |
| COc1ccccc1[C@@H](NS(=O)(=O)c1cc2ccc(O)nc2cc1Cl)C(=O)N(CC(=O)NCCn1cc(COCCOCC(=O)N[C@H](C(=O)N2C[C@H](O)C[C@H]2C(=O)NCc2ccc(-c3scnc3C)cc2)C(C)(C)C)nn1)Cc1cccs1 | fast-gradient HPLC |  |  | pH 7.4 |  | 2.3 |
| CSCC[C@@H]1NC(=O)[C@H](CC(N)=O)NC(=O)[C@@H](NC(=O)CCOCCOCCOCCNC(=O)CN2CCN(CC(=O)O)CCN(CC(=O)O)CC2)CSSC[C@@H](C(=O)O)NC(=O)[C@H](C(C)C)NC(=O)[C@H](CCSC)NC(=O)[C@@H]2CCCN2C(=O)[C@H]([C@@H](C)O)NC(=O)[C@H](Cc2c[nH]cn2)NC1=O [gallium-68 labelled] | shake-flask | 1-octanol/PBS |  | pH 7.4 |  | -1.34 ± 0.18 |
| O=C(CN1CN(c2ccccc2)C2(CCN(C(=O)c3cnc4[nH]ncc4c3)CC2)C1=O)NCC(F)(F)F |  |  |  | pH 7.4 |  | 1.92 |
| C=CCN1CCC23c4c5ccc(OC(=O)c6ccc(NCc7cn(CCCCCCCCCCCC)nn7)cc6)c4OC2C(=O)CCC3(O)C1C5 (centres unmarked) |  |  |  | pH 7.4 |  | 2 |
| CN1CC[C@]23c4c5ccc(O)c4O[C@H]2[C@H](O)C=C[C@@]3(O)[C@H]1C5 |  | octanol/buffer | 1 h | pH 7.4 |  | -0.82 |
| Cc1cccc2c1C1(CCN(C(=O)c3ccc4[nH]ncc4c3)CC1)C(=O)N2CC(=O)NCC(F)(F)F |  |  |  | pH 7.4 |  | 2.68 |
| COc1ccc2c3c1O[C@H]1C(=O)CC[C@@]4(O)[C@@H](C2)N(CC2CCC2)CC[C@]314 |  | octanol/buffer | 1 h | pH 7.4 |  | 1.68 |
| N#Cc1cccc2c1C1(CCN(C(=O)c3cnc4[nH]ncc4c3)CC1)C(=O)N2CC(=O)NCC(F)(F)F |  |  |  | pH 7.4 |  | 2.6 |

A few entries again:
| Structure (SMILES) | technique | matrix | time | pH | notes | logD |
| --- | --- | --- | --- | --- | --- | --- |
| O=C(CN1C(=O)C2(CCN(C(=O)c3cnc4[nH]ncc4c3)CC2)c2c(F)cccc21)NCC(F)(F)F |  |  |  | pH 7.4 |  | 1.97 |
| O=C(CN1CN(c2ccccc2)C2(CCN(C(=O)c3cnc4[nH]ncc4c3)CC2)C1=O)NCC(F)(F)F |  |  |  | pH 7.4 |  | 1.92 |
